Measured values pooled from the literature.
Compare with care: the assays were run in different laboratories. ± gives the spread as reported.

SMILES	cell line	test	setting	how to read	measurement	result
CCCCCCCCc1ccc(CCC(N)(CO)CO)cc1	BT-12	cell viability, MTT	10 µM, 72 h		inhibition	94.4%
Cn1cc(-c2ccc(-c3cncc(Cl)c3N3CCC4(CCNC4=O)CC3)cc2)cn1	COLO 205	gene expression, microarray, refers to: HIST1H4A mRNA	concentration not given, 6 h	reference: untreated cells	log2 fold change	-1.8
CCOC(=O)Nc1cc(-c2ccc(C)c(NS(C)(=O)=O)c2)nn2c(C)nnc12	HBL-1		1 µM, 120 h		viability	16.8%
CCOc1nc(-c2cccc(O)c2)cc(-c2cc3cc(Cl)ccc3nc2N2CCOCC2)c1C#N	NFS-60	MTT		reference: WI-38 EC50 over NFS-60 IC50	selectivity ratio	0.257
O=C1c2ccccc2-c2nc3nnnn3nc21	HeLa expressing Ub(G76V)-GFP	Ub(G76V)-GFP degradation, inhibitor, cycloheximide chase	12 µM		inhibition	86%
O=c1ncccn1[C@@H]1O[C@H](CO)[C@@H](O)[C@H]1O	HBL-1		1 µM, 120 h		viability	100%
CC1(C)CN(CCCCC(=O)N[C@@H](CCCCNC(=O)CCCCCCC(=O)NCCCC[C@H](NC(=O)N[C@@H](CCC(=O)O)C(=O)O)C(=O)O)C(=O)O)CC[N]2CC(C)(C)[S][Tc]2(=[O])[S]1 (some centres unmarked) [technetium-99m labelled]	LNCaP		25 nM, 1 h, 4 °C		surface-bound activity	1.95 ± 0.93 %AD/mg protein
CC(C(=O)Nc1cccc(/N=C/c2c(O)ccc3ccccc23)c1)c1ccccc1 (centres unmarked)	HBL-1		0.1 µM, 120 h		viability	108%
CC(=O)OC[C@H]1O[C@@H]([S-])[C@H](OC(C)=O)[C@@H](OC(C)=O)[C@@H]1OC(C)=O.CCP(CC)CC.[Au+]	SH-SY5Y Neh2-luc reporter		concentration not given, 3 h	reference: background	reporter activation	> 20 fold
CC(C)C[C@@H](C=O)NC(=O)[C@H](CC(C)C)NC(=O)[C@H](CC(C)C)NC(=O)OCc1ccccc1	HeLa expressing Ub(G76V)-GFP	Ub(G76V)-GFP degradation, cycloheximide chase	0.039 µM	reference: DMSO	remaining activity	73%
CCn1cc(-c2cc(Cn3ccnc3)cc3c2CCN([C@H](c2cc(OC)ccn2)C2CC2)C3=O)c(C(F)(F)F)n1	G-402	cell growth, inhibitor	120 h		EC50	7.44 µM
O=C(CCCCCCC(=O)NO)NO	HBL-1		0.5 µM, 120 h		viability	144%
COc1cc2nccc(Oc3ccc(NC(=O)NC4CC4)c(Cl)c3)c2cc1C(N)=O	A549 and H460 (LKB1-null)	Western blot	concentration not given, 1 h		AMPK phosphorylation	no effect
CC[C@@H]1C(=O)N(C)c2cnc(Nc3ccc(C(=O)N[C@H]4CC[C@H](N5CCN(CC6CC6)CC5)CC4)cc3OC)nc2N1C(C)C	BT-12	cell viability, MTT	10 µM, 72 h		inhibition	89.2%
CCCCN1C[C@H](O)[C@@H](O)[C@@H](O)[C@H]1CO	sample BC patient fibroblasts	Gb3 level lowering, LC-MS/MS, refers to: Gb3 d18:1/16:0	216 h		IC50	19.9 µM
Cc1ccc(CNC(=O)Cn2cc(CSc3nc4ccccc4[nH]3)nn2)cc1	Caco-2	MTT	250 ppm		cytotoxicity	89.6%
CCCc1cc(C)[nH]c(=O)c1CNC(=O)c1cc(-c2ccnc(N3CCN(C)CC3)c2)cc2c1cnn2C(C)C	HBL-1		1 µM, 120 h		viability	124%
COc1cc2ncnc(Nc3ccc(Oc4ccccc4)cc3)c2cc1OC	HeLa expressing Ub(G76V)-GFP	Ub(G76V)-GFP degradation, cycloheximide chase	12 µM		inhibition	18%
CC(=O)Nc1cccc(-n2c(=O)n(C3CC3)c(=O)c3c(Nc4ccc(I)cc4F)n(C)c(=O)c(C)c32)c1	NCI-H2087 (BRAF L597V)		1.56 nM	reference: DMSO	fractional effect	0.119
c1ccc2c(Cc3c[nH]c4ccccc34)c[nH]c2c1	HBL-1		1 µM, 120 h		viability	106%
CCCCN1CCN(c2ccc3[nH]c(-c4ccc5[nH]c(-c6cc(OC)c(OC)c(OC)c6)nc5c4)nc3c2)CC1	Hs-578T	SRB	10 µM, 48 h		growth percent	45%
Nc1nccc2c1ncn2[C@@H]1C=C(CO)[C@@H](O)[C@H]1O	HBL-1		1 µM, 120 h		viability	50.1%
Clc1nc(NCc2ccco2)c2[nH]cnc2n1	FD iPSC-derived cardiomyocytes	alternative splicing, RNA-seq, refers to: IDH3A exon chr15:78156907-78157162	unit not given	reference: DMSO minus compound	ΔPSI	0.244

Excerpt of the above:
SMILES	cell line	test	setting	how to read	measurement	result
O=C1c2ccccc2-c2nc3nnnn3nc21	HeLa expressing Ub(G76V)-GFP	Ub(G76V)-GFP degradation, inhibitor, cycloheximide chase	12 µM		inhibition	86%
O=c1ncccn1[C@@H]1O[C@H](CO)[C@@H](O)[C@H]1O	HBL-1		1 µM, 120 h		viability	100%
